Measured values gathered from unrelated publications.
Lines come from different studies, so protocols differ.

| Compound | sample | tested at | pH | temperature | setting | absorption maximum |
| --- | --- | --- | --- | --- | --- | --- |
| CCN(CC)c1ccc2c(c1)O[B-]1(c3c(C)cccc3C)OC(=O)C(c3ccccc3)=N[N+]1=C2 (stereo not drawn) | toluene |  |  |  |  | 471 nm |
| CCCCN1C(=O)c2cccc3c(NCCCN4CCOCC4)ccc(c23)C1=O | water |  | pH 6.0 |  |  | 446 nm |
| CCN(CC)c1ccc2c(c1)O[B-]1(c3ccccc3)OC(=O)C(c3ccccc3)=N[N+]1=C2 (stereo not drawn) | toluene |  |  |  |  | 472 nm |
| O=c1cc(/C=C/c2ccc(N3CCCC3)cc2)oc(/C=C/c2ccc(N3CCCC3)cc2)c1 | acetonitrile/water 1:19 v/v | 10 µM |  | 298 K | aggregate nanoparticle suspension | 511 nm |
| COC(=O)c1ccccc1-c1c2ccc(=O)cc-2oc2c1ccc1cccc(O)c12 | 12.5 mM aqueous NaOH |  | pH 12.1 |  | 10% DMSO | 599 nm |
| O=c1cc(/C=C/c2ccc(N(c3ccccc3)c3ccccc3)cc2)oc(/C=C/c2ccc(N(c3ccccc3)c3ccccc3)cc2)c1 | acetonitrile | 10 µM |  | 298 K |  | 409 nm |
| CCN(CC)c1ccc2c(c1)O[B-]1(c3ccccc3)OC(=O)C(c3ccccc3)=N[N+]1=C2C (stereo not drawn) | toluene |  |  |  |  | 470 nm |
| CCCCN1C(=O)c2cccc3c(NCCN4CCOCC4)ccc(c23)C1=O | DMSO |  |  |  |  | 443 nm |
| CN(C)c1ccc(/C=C/c2cc(=O)cc(/C=C/c3ccc(N(C)C)cc3)o2)cc1 | acetonitrile/water 1:19 v/v | 10 µM |  | 298 K | aggregate nanoparticle suspension | 535 nm |
| CC1(C)C(/C=C/C2=C(Cl)C(=C/C=C3/N(CCCCCC(=O)O)c4ccccc4C3(C)C)/C[N+](C)(C)C2)=[N+](CCCCCC(=O)O)c2ccccc21 | methanol |  |  |  |  | 753 nm |
| O=c1cc(/C=C/c2ccc(N3CCOCC3)cc2)oc(/C=C/c2ccc(N3CCOCC3)cc2)c1 | acetonitrile/water 1:19 v/v | 10 µM |  | 298 K | aggregate nanoparticle suspension | 376 nm |
| CCN(CC)c1ccc2c(c1)O[B-]1(c3ccccc3C#N)OC(=O)C(c3ccccc3)=N[N+]1=C2CC(C)C (stereo not drawn) | toluene |  |  |  |  | 471 nm |
| CCCCN1C(=O)c2cccc3c(NCCCCCCCCCCN4CCOCC4)ccc(c23)C1=O | water |  | pH 6.0 |  |  | 452 nm |
| COc1ccc2c(c1)O[B-]1(c3ccccc3)OC(=O)C(c3ccccc3)=N[N+]1=C2C (stereo not drawn) | toluene |  |  |  |  | 423 nm |
| CN1CCN(c2ccc(/C=C/c3cc(=O)cc(/C=C/c4ccc(N5CCN(C)CC5)cc4)o3)cc2)CC1 | acetonitrile/water 1:19 v/v | 10 µM |  | 298 K | aggregate nanoparticle suspension | 401 nm |

A few entries again:
| Compound | sample | tested at | pH | temperature | setting | absorption maximum |
| --- | --- | --- | --- | --- | --- | --- |
| CC1(C)C(/C=C/C2=C(Cl)C(=C/C=C3/N(CCCCCC(=O)O)c4ccccc4C3(C)C)/C[N+](C)(C)C2)=[N+](CCCCCC(=O)O)c2ccccc21 | methanol |  |  |  |  | 753 nm |
